Experimental data of several laboratories.
Compare with care: the assays were run in different laboratories.
4'-phosphopantetheinyl transferase PptT: 4'-phosphopantetheinyl transferase PptT (Mycobacterium tuberculosis, UniProt O33336)
UniProt O33336, sequence (whole entry, looked up): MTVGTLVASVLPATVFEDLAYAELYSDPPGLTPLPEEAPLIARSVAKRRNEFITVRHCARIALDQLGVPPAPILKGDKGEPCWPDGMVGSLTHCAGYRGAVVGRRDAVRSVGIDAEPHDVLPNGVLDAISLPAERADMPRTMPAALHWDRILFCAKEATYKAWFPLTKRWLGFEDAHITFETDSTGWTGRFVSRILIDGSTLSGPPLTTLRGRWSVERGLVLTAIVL
UniProt Q13131, sequence (whole entry, looked up): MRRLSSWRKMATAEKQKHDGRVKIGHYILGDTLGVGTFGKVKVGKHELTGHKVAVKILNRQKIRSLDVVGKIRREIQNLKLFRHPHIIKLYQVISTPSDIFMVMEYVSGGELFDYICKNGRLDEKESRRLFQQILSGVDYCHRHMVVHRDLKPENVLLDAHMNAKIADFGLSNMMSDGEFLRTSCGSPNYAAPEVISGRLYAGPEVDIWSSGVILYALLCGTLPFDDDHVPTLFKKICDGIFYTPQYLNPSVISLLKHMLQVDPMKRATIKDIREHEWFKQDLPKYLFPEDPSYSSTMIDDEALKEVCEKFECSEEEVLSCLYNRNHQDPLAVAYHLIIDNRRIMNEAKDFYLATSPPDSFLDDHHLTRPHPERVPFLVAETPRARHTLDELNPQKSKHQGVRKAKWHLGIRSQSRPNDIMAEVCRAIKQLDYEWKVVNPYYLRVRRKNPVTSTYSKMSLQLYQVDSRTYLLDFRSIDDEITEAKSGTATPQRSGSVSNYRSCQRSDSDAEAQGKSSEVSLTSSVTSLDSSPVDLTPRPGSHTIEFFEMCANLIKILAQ
UniProt P42336, sequence (whole entry, unmodified, looked up): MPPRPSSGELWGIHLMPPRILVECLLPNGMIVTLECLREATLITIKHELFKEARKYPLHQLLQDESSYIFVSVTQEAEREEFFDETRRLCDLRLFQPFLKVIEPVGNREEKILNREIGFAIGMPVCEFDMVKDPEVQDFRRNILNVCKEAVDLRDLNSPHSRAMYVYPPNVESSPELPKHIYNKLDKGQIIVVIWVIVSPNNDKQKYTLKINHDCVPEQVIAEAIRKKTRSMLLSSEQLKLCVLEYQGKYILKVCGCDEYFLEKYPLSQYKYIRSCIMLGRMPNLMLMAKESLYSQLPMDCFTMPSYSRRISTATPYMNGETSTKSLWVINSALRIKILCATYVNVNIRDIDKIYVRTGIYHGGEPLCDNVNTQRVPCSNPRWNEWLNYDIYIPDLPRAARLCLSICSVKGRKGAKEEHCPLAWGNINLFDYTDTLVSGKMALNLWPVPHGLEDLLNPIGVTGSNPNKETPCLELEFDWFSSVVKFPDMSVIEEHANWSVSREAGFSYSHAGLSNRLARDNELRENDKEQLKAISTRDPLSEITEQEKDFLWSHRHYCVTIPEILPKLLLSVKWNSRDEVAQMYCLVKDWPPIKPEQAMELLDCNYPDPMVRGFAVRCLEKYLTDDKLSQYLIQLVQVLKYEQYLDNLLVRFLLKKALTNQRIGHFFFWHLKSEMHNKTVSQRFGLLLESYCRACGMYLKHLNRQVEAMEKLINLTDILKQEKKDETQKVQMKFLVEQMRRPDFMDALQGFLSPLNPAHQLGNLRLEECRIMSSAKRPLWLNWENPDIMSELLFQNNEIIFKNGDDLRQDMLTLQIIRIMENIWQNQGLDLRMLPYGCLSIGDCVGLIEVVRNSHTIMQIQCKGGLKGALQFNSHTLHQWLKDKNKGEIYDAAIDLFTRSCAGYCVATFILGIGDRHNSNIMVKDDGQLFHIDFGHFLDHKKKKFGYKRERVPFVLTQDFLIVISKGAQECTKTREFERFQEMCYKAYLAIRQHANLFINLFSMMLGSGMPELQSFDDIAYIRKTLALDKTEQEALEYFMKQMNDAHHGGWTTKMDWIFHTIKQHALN
UniProt Q99755, sequence (whole entry, looked up): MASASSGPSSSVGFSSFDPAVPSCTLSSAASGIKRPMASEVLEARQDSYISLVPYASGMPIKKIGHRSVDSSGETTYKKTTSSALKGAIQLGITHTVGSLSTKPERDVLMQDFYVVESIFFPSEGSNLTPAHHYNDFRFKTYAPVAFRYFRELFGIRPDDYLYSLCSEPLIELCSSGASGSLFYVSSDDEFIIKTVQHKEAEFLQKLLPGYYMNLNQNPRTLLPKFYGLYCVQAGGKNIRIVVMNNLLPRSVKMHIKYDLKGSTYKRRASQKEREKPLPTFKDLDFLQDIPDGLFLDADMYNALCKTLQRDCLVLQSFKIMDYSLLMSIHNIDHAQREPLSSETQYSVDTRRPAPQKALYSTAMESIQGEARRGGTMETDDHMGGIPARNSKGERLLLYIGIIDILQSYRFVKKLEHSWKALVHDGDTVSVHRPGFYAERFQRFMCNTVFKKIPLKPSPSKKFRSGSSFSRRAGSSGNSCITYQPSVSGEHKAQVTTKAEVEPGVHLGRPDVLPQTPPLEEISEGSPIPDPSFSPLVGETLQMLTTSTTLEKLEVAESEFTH
UniProt Q2M2I8, sequence (whole entry, looked up): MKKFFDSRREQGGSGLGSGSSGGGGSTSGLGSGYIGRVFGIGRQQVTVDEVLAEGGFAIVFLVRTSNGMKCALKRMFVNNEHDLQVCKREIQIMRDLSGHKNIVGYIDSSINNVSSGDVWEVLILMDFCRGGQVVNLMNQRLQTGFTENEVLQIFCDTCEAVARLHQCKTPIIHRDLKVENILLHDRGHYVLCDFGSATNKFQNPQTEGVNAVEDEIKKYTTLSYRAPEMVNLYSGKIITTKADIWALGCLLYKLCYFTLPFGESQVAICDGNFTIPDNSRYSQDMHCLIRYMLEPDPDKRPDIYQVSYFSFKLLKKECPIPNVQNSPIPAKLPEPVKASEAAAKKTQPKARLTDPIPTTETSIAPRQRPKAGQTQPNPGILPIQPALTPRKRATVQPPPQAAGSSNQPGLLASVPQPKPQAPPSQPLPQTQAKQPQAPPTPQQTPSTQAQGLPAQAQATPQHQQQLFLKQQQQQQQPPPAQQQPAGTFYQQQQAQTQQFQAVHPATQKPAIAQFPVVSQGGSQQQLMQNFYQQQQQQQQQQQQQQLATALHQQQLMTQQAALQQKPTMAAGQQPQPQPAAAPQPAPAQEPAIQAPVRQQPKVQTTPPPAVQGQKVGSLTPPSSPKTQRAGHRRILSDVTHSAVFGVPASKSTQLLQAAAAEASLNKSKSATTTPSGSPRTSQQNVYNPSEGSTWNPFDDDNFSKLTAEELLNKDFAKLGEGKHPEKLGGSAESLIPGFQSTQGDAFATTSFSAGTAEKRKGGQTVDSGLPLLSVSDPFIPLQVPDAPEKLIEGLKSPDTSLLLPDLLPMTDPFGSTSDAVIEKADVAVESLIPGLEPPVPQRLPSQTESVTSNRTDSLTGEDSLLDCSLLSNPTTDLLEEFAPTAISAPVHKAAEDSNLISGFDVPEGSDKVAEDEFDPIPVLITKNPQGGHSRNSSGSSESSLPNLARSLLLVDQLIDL

SMILES | tested on | test | setting | measurement | value
CCOC(=O)C1=C(CN2CCC(C(=O)Nc3cccc(B(O)O)c3)C2)NC(c2nccs2)=NC1c1ccc(F)cc1Br (stereo not drawn) | HepDES19 | cell growth or viability, MTS | 72 h | CC50 | 27.1 µM
CC(C)C[C@H](NC(=O)[C@@H](NC(=O)c1cccnc1)C(C)C)C(=O)N[C@H](C=O)C[C@@H]1CCCNC1=O | A549 | cell growth or viability, MTT | 24 h | CC50 | > 100 µM
O=c1c2cc(Cl)ccc2[nH]c(=S)n1Cc1ccc(-c2cscn2)nc1 | 4'-phosphopantetheinyl transferase PptT | enzyme activity, inhibitor, FP |  | IC50 | 0.35 µM
[2H]c1c([2H])c([C@]2([2H])CCCN2C(=O)C(C)(C)Oc2ccc3cn[nH]c3c2)c([2H])c([2H])c1C([2H])([2H])[2H] | PIP5K1A (Homo sapiens, UniProt Q99755) | binding, competition with immobilised ligand | 1 µM | remaining binding | 81%
Cc1nn(C)cc1-c1nc2c(N3CCN(Cc4ccc(Cl)cc4)CC3)c(Cl)cnc2[nH]1 | PIK3CA (Homo sapiens, UniProt P42336, C420R) | binding, competition with immobilised ligand | 1 µM | remaining binding | 100%
CC(C)C[C@H](NC(=O)[C@@H](NC(=O)/C=C/c1ccc(N(C)C)cc1)C(C)C)C(=O)N[C@H](C=O)C[C@@H]1CCCNC1=O | A549 | cell growth or viability, MTT | 24 h | CC50 | > 100 µM
CCOC(=O)C1=C(CN2CCCC2C(=O)Nc2cccc(B3OC(C)(C)C(C)(C)O3)c2)NC(c2nccs2)=NC1c1ccc(F)cc1Br (stereo not drawn) | HepDES19 | cell growth or viability, MTS | 72 h | CC50 | 29.5 µM
CC(C)C[C@H](NC(=O)/C=C/c1ccccc1)C(=O)N[C@H](C=O)C[C@@H]1CCNC1=O | A549 | cell growth or viability, MTT | 24 h | CC50 | > 100 µM
Nc1ccn([C@@H]2CS[C@H](CO)O2)c(=O)n1 | HepDES19 | cell growth or viability, MTS | 72 h | CC50 | > 50 µM
COc1ccc2cc1Oc1ccc(cc1)C[C@H]1c3cc(c(OC)cc3CCN1C)Oc1c(OC)c(OC)cc3c1[C@H](C2)N(C)CC3 | A549 | cell growth or viability, CCK-8 | 48 h | CC50 | 55.2 µM
CCC(C)C(NC(=O)C1N2C(=O)c3ccccc3C2SC1(C)C)C(=O)NC(CO)C(C)C (stereo not drawn) | Calu-3 | cell growth or viability, MTT | 48 h | CC50 | > 250 µM
COc1ncccc1-c1cnn2ccc(N3CCN(C(=O)OC(C)C)CC3)nc12 | PRKAA1 (Homo sapiens, UniProt Q13131) | binding, competition with immobilised ligand | 1 µM | remaining binding | 56%
CCOC(=O)C1=C(CN2CCC[C@@H]2C(=O)Nc2ccc(B(O)O)cc2)NC(c2nccs2)=N[C@H]1c1ccc(F)cc1Br | HepDES19 | cell growth or viability, MTS | 72 h | CC50 | 32 µM
CC(C)(C)[C@H](NC(=O)C(F)(F)F)C(=O)N1C[C@H]2[C@@H]([C@H]1C(=O)N[C@H](C#N)C[C@@H]1CCNC1=O)C2(C)C | Caco-2 | cell growth or viability |  | CC50 | > 100 µM
C[N+]1=C2C=C(N)C(=O)c3[nH]cc(c32)CC1 | HCT-116 | cell growth or viability, MTT | 72 h | CC50 | 0.78 µM
CC(C)C[C@H](NC(=O)[C@@H](NC(=O)c1ccc[nH]1)C(C)C)C(=O)N[C@H](C=O)C[C@@H]1CCCNC1=O | A549 | cell growth or viability, MTT | 24 h | CC50 | > 100 µM
COc1ccc2cc1Oc1ccc(cc1)C[C@H]1c3c(cc4c(c3Oc3cc5c(cc3OC)CCN(C)[C@@H]5C2)OCO4)CCN1C | MDCK | cell growth or viability, CCK-8 | 48 h | CC50 | 68.3 µM
O=c1nc(NO)ccn1[C@@H]1O[C@H](CO)[C@@H](O)[C@H]1O | Calu-3 | cell growth or viability |  | CC50 | > 100 µM
CCOC(=O)C1=C(CN2CCC(C(=O)Nc3ccc(B(O)O)cc3)C2)NC(c2nccs2)=NC1c1ccc(F)cc1Br (stereo not drawn) | HepDES19 | cell growth or viability, MTS | 72 h | CC50 | 26.8 µM
CC(C)C[C@H](NC(=O)[C@@H](NC(=O)c1ccccn1)C(C)C)C(=O)N[C@H](C=O)C[C@@H]1CCCNC1=O | A549 | cell growth or viability, MTT | 24 h | CC50 | > 100 µM
CCOC(=O)C1=C(CN2CCN(Cc3ccc(B4OC(C)(C)C(C)(C)O4)cc3)CC2)NC(c2nccs2)=NC1c1ccc(F)cc1Br (stereo not drawn) | HepDES19 | cell growth or viability, MTS | 72 h | CC50 | 42.3 µM
CCC(CC)COC(=O)[C@H](C)N[P@](=O)(OC[C@H]1O[C@@](C#N)(c2ccc3c(N)ncnn23)[C@H](O)[C@@H]1O)Oc1ccccc1 | Caco-2 | cell growth or viability |  | CC50 | > 100 µM
CCOC(=O)C1=C(CN2CCC[C@H]2C(=O)Nc2cccc(B(O)O)c2)NC(c2nccs2)=N[C@@H]1c1ccc(F)cc1Br | HepDES19 | cell growth or viability, MTS | 72 h | CC50 | 33.7 µM
O=c1c2cc(Cl)c(CF)cc2[nH]c(=S)n1Cc1cccnc1 | 4'-phosphopantetheinyl transferase PptT | enzyme activity, inhibitor, FP |  | IC50 | 1.77 µM
CC(C)C[C@H](NC(=O)[C@@H](NC(=O)c1ccccc1)C(C)C)C(=O)N[C@H](C=O)C[C@@H]1CCCNC1=O | A549 | cell growth or viability, MTT | 24 h | CC50 | > 100 µM
C[C@H]1CCC/C=C/[C@@H]2C[C@H](O)C[C@H]2[C@H](O)/C=C/C(=O)O1 | HepG2 | cell growth or viability, ATP luminescence | 72 h | CC50 | 60 µM
C[N+]1=C2C=C(N/C=C/c3ccc(O)cc3)C(=O)c3[nH]cc(c32)CC1 | HepG2 | cell growth or viability, MTT | 72 h | CC50 | 5 µM
Nc1ncc(-c2nc(N3CCOCC3)nc(N3CCOCC3)n2)c(C(F)F)n1 | AAK1 (Homo sapiens, UniProt Q2M2I8) | binding, competition with immobilised ligand | 10 µM | remaining binding | 62%
C#CC[C@H](NC(=O)/C=C/c1ccccc1)C(=O)N[C@H](C=O)C[C@@H]1CCNC1=O | A549 | cell growth or viability, MTT | 24 h | CC50 | > 100 µM
COc1ccc2cc1Oc1ccc(cc1)C[C@H]1c3cc(c(OC)cc3CCN1C)Oc1c(O)c(OC)cc3c1[C@H](C2)N(C)CC3 | MDCK | cell growth or viability, CCK-8 | 48 h | CC50 | 47.7 µM
